Measurements gathered from unrelated publications.
Each line is one published result; not all experiments were run side by side. “And” joins repeats or separate records; there may be more than shown. Numbers after ± are the reported error. ≈ marks a conversion by molar mass, not a printed value.
UniProt P35346, sequence (whole entry, looked up): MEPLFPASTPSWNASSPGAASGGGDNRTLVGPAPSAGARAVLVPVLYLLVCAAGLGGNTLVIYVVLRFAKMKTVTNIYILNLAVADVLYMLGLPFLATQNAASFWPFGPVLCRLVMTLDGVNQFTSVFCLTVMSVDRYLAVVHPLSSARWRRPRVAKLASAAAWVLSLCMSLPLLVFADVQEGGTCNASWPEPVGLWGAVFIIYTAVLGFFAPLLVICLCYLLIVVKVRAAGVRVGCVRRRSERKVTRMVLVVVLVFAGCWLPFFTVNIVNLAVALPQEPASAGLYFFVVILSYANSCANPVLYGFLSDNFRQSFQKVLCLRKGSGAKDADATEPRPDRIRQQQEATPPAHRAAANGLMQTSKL
UniProt Q96LB2, sequence (whole entry, looked up): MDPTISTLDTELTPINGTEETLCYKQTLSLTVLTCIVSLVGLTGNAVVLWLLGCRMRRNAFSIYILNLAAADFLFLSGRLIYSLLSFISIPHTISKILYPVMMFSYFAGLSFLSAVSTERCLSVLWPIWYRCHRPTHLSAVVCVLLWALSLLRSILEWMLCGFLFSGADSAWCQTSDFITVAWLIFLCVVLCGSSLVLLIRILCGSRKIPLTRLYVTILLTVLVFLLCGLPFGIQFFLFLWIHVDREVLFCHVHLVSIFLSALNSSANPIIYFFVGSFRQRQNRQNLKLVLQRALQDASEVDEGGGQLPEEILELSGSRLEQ

Compound | tested on | assay | system | setting | how to read | quantity | result
Cl.N/C(CC(O)c1cc2c(F)cc(F)cc2c2cc(C(F)(F)F)ccc12)=N\c1ccc(F)cc1 (stereo not drawn) | Plasmodium berghei | Peters test | ANKA, mice | oral, 4 x 30 mg/kg | – | mean survival time | 30 days
C[C@H]1[C@H](OC(=O)CCC(=O)O)O[C@@H]2O[C@@]3(C)CC[C@H]4[C@H](C)CC[C@@H]1[C@@]24OO3 | Plasmodium berghei | – | ANKA GFP-transfected, Mus musculus | oral, 4 x 100 mg/kg | – | mean survival time | 27 days
COc1cc[nH]c1/C=C1\C(=O)Nc2ccc([N+](=O)[O-])c(N3CC[C@@H](O)C3)c21 | human cytomegalovirus | western blot densitometry, refers to: pp28 | HFF, AD169 | 0.01 µM | relative to: DMSO | fold decrease in protein level | ~4 fold
CC[C@H](C)[C@@H]1NC(=O)[C@@H]2CCCN2C(=O)[C@H](CC(C)C)NC(=O)[C@H](CC(C)C)NC(=O)CNC(=O)[C@@H](NC(=O)[C@@H](NC(=O)[C@H](CC(=O)O)NC(=O)CNC(=O)[C@@H](NC(=O)[C@H](C)NC(=O)CNC(=O)[C@H](CCCCN)NC(=O)[C@H](CC(C)C)NC(=O)[C@H](CC(C)C)NC(=O)[C@H](CCCCN)NC(=O)CNC(=O)[C@@H](NC(=O)[C@@H](N)CC(C)C)C(C)C)C(C)C)C(C)C)CSSC[C@@H](C(=O)O)NC1=O | – | RNA-seq, refers to: Il12rb1 mRNA | mouse traumatic brain injury, frontal cortex and hippocampus | dose not given | relative to: TBI plus compound vs TBI | log2 fold change | -2.05
CO/C1=C\C(C)=C\[C@@H](C)[C@@H](O)[C@@H](C)C/C(C)=C/C=C/[C@H](OC)[C@@H]([C@@H](C)[C@@H](O)[C@H](C)[C@@]2(O)C[C@@H](O)[C@H](C)[C@@H](C(C)C)O2)OC1=O | Apostichopus japonicus | BCECF-AM flow cytometry | coelomocytes | concentration not given, 24 and 48 h | – | phagosome acidification | no effect
Cn1c(=O)ccc2ccc(F)c(CCNC[C@H]3CN(c4cnc5c(n4)NC(=O)CO5)C(=O)O3)c21 | Proteus spp. | – | – | – | – | MIC50 | 0.12 µg/mL (≈ 0.256 µM)
CS(=O)(=O)CCCn1c(Cn2c(=O)n(CC(F)(F)F)c3ccncc32)cc2cc(Cl)ccc21 | respiratory syncytial virus | RT-qPCR | hospitalized infants 1-24 months, nasal swab | oral, 6, 4.5 or 3 mg/kg daily, day 28, mid dose by age cohort | relative to: baseline | LS mean viral load change | -5.1 log10 copies/mL
CC(C)CNC(=O)[C@@H](N)Cc1ccc(OP2(=O)CO[C@@H](Cn3cnc4c(N)ncnc43)CO2)cc1 (stereo partly drawn) | human cytomegalovirus | viral replication | – | – | – | IC50 | 300 nM
CC[C@H](C)[C@H](NC(=O)[C@H](C)NC(=O)[C@H](CCCCN)NC(=O)[C@H](CC(C)C)NC(=O)[C@H](C)NC(=O)[C@@H](NC(=O)[C@H](Cc1c[nH]cn1)NC(=O)[C@H](CC(C)C)NC(=O)[C@@H](NC(=O)[C@@H](NC(=O)[C@H](CCCCN)NC(=O)[C@H](C)NC(=O)[C@H](C)NC(=O)[C@H](CO)NC(=O)[C@H](CCCCN)NC(=O)[C@H](Cc1ccccc1)NC(=O)[C@@H](NC(=O)[C@H](CCCCN)NC(=O)[C@H](CC(C)C)NC(=O)[C@H](Cc1ccccc1)NC(=O)[C@H](CO)NC(=O)[C@H](CCCCN)NC(=O)[C@H](Cc1c[nH]c2ccccc12)NC(=O)[C@H](CCCCN)NC(C)=O)[C@@H](C)O)[C@@H](C)O)C(C)C)[C@@H](C)O)C(=O)N[C@@H](CO)C(=O)N[C@@H](CO)C(N)=O | Staphylococcus aureus | – | ATCC 29213 | – | – | MIC50 | 8 µg/mL (≈ 2.73 µM)
Cl.N=C(CC(O)c1cc2c(F)cc(F)cc2c2cc(C(F)(F)F)ccc12)Nc1ccc(Br)cc1 (stereo not drawn) | Plasmodium berghei | Peters suppressive test | ANKA, infected mice | oral, 4 x 30 mg/kg, day 4 | relative to: untreated control | parasitemia reduction | 99.6%
OC(Cn1cncn1)(Cn1cncn1)c1ccc(F)cc1F | Candida tropicalis | broth microdilution | – | – | – | MLC | 16 ± 2 µg/mL (≈ 52.2 µM)
CCCCc1ccc(CNc2nc(N(C)C)nc(N(C)C)c2/N=N/c2ccc(Cl)cc2)cc1 | Plutella xylostella | leaf dipping | – | 12.5 mg/L | – | mortality | 50%
CC(=O)N[C@H]1[C@@H](O[C@@H]2O[C@H](C[C@@H](O)[C@H]3O[C@@H](n4ccc(=O)[nH]c4=O)[C@H](O)[C@@H]3O)[C@H](O)[C@H](O)[C@H]2NC(=O)/C=C/CCCCCCCCCC(C)C)O[C@H](CO)[C@@H](O)[C@@H]1O | Bacillus subtilis | microplate alamar blue | ATCC 6051 | – | – | MIC90 | 0.3 µg/mL (≈ 0.361 µM)
COc1cc2c(Oc3ccc4[nH]c(C)cc4c3F)ccnc2cc1OCC1(N)CC1 | – | – | paediatric recurrent refractory sarcoma | 12 mg | – | grade 1 or 2 Cholesterol elevation | 18.2%
CN1CCN(c2cc(-c3ccncc3)c(-c3ccc4ccccc4c3)nn2)CC1 | MRGPRX1 (Homo sapiens, UniProt Q96LB2) | agonist, FLIPR | – | 12.5 µM | – | activation | 9.5%
C[C@H]1CN(c2n[nH]c3nc(N[C@H]4CC[C@H](NS(=O)(=O)CCC(F)(F)F)CC4)ncc23)CCO1 | Small ribosomal subunit protein uS3 (Homo sapiens, UniProt P23396) | Kinobeads competition, refers to: RPS3 | – | 0.16 µM, unit not given | relative to: vehicle | remaining binding | 0.97
Nc1c([N+](=O)[O-])oc2ccc3ccccc3c12 | Mycobacterium marinum | REMA | ATCC BAA-535 | – | – | MIC90 | 4 µg/mL (≈ 17.5 µM)
CN1CCN(S(=O)(=O)c2cc([N+](=O)[O-])ccc2N(CCOS(C)(=O)=O)CCOS(C)(=O)=O)CC1 | Homo sapiens | cell viability, resazurin or CellTiter-Glo | sample D BCP-ALL PDX cells, ex vivo | 48 h | – | IC50 | 23600 nM

Compound | tested on | assay | system | setting | how to read | quantity | result
Nc1ccn(C[C@@H](CO)OCP(=O)(O)O)c(=O)n1 | herpes simplex virus 1 | viral cytopathicity | HEL, KOS TK-deficient acyclovir-resistant | – | – | EC50 | 1200 nM
CNC(=O)c1cc(Cl)cc(C)c1NC(=O)c1cc(Br)nn1-c1ncccc1Cl | Plutella xylostella | – | Raphanus sativus field | 25 ppm, 168 h, 5% water-dispersible granule | – | larval survival | 8.6%
COc1ccc(C[C@H](NC(=O)[C@H](C)NC(=O)CN2CCOCC2)C(=O)N[C@@H](Cc2ccccc2)C(=O)C2(C)CO2)cc1 (stereo in doubt) | Plasmodium berghei | – | ANKA, mouse | oral | – | minimum effective dose | 10 mg/kg
CN[C@H](CC(C)C)C(=O)N[C@H]1C(=O)N[C@@H](CC(N)=O)C(=O)N[C@H]2C(=O)N[C@H]3C(=O)N[C@H](C(=O)N[C@H](C(=O)O)c4cc(O)cc(O)c4-c4cc3ccc4O)[C@H](O)c3ccc(c(Cl)c3)Oc3cc2cc(c3O[C@@H]2O[C@H](CO)[C@@H](O)[C@H](O)[C@H]2O[C@H]2C[C@](C)(N)[C@H](O)[C@H](C)O2)Oc2ccc(cc2Cl)[C@H]1O | Gram-negative bacteria | – | – | concentration not given | – | antibacterial activity | inactive
COP(=O)(OC)C(O)C(Cl)(Cl)Cl (stereo not drawn) | Drosophila melanogaster | fluorescence | – | liquid food, 40 µg/mL, first instar larvae | relative to: solvent | fluorescein ingestion | -38.3%
O=C(NNc1cccc(Cl)c1)c1nnc(C23CC4CC(CC(C4)C2)C3)o1 | Botryosphaeria dothidea | fungal growth, inhibitor | – | 50 µg/mL | – | inhibition | 100%
O=C(NC(=O)c1c(F)cccc1F)Nc1ccc(Cl)cc1 | Plutella xylostella | leaf dipping | – | 200 mg/L, 96 h | – | mortality | 79.4 ± 4.3%
OB(O)c1csc2ccccc12 | Staphylococcus aureus | OD600 | USA300 fphE::Tn transposon mutant | 10 µM | relative to: wild type | growth | 75.8% and 59.7% and 69.7% and 81.3% and 54% and 52%
CC[C@H](C)[C@H](NC(=O)[C@H](CC(C)C)NC(=O)[C@H](CC(C)C)NC(=O)[C@H](Cc1c[nH]cn1)NC(=O)[C@H](CCCCN)NC(=O)[C@H](Cc1c[nH]cn1)NC(=O)[C@H](CCCNC(=N)N)NC(=O)[C@@H]1CCCN1C(=O)[C@H](Cc1ccc(O)cc1)NC(=O)[C@H](CC(C)C)NC(=O)[C@H](CCC(N)=O)NC(=O)[C@@H](N)CO)C(=O)N[C@@H](CCCCN)C(=O)N[C@@H](CCCNC(=N)N)C(=O)N[C@@H](CO)C(=O)N[C@@H](CC(C)C)C(=O)N[C@@H](CCCNC(=N)N)C(=O)N[C@@H](CS)C(=O)N[C@@H](CCCNC(=N)N)C(=O)N[C@@H](CCCCN)C(=O)N[C@@H](CS)C(=O)O | Micrococcus luteus | – | NCTC 2665 | – | – | MBC | 32 µg/mL
Cl.N=C(CC(O)c1cc2c(F)cc(F)cc2c2cc(C(F)(F)F)ccc12)Nc1ccc(F)c(F)c1 (stereo not drawn) | Plasmodium berghei | Peters 4-day test | ANKA, mouse | oral, 3 mg/kg | – | cure rate | 0%
C[C@H]1COCCN1c1nc(NCc2cccnc2C(F)(F)F)c2cccnc2n1 | Brugia malayi | – | SCID mouse | dose not given, 6 weeks post-treatment, dosing x14d | – | minimum adult worm burden | 0 worms per mouse
CO[C@H]1/C=C/O[C@@]2(C)Oc3c(C)c(O)c4c(O)c(c(/C=N/N5CCN(C)CC5)c(O)c4c3C2=O)NC(=O)/C(C)=C\C=C\[C@H](C)[C@H](O)[C@@H](C)[C@@H](O)[C@@H](C)[C@H](OC(C)=O)[C@@H]1C | Mycobacterium marinum | REMA | ATCC BAA-535 | – | – | MIC90 | 0.1 µg/mL (≈ 0.122 µM)
Cn1cc(NC(=O)c2cc(NC(=O)CN=C(N)N)cn2C)cc1C(=O)NCCC(=N)N | Bacillus subtilis | bacterial cytological profiling | ATCC 6633 | – | – | DNA length | 2.44 µm and 2.38 µm and 2.59 µm
CO[C@H]1C[C@@H]2CC[C@@H](C)[C@@](O)(O2)C(=O)C(=O)N2CCCC[C@H]2C(=O)O[C@H]([C@H](C)C[C@@H]2CC[C@@H](OC(=O)NCCOCCOCCOCCOCCOCCOCCOCCOCCC(=O)N3CCc4cc(Cn5nc(-c6ccc7oc(N)nc7c6)c6c(N)ncnc65)ccc4C3)[C@H](OC)C2)C[C@@H](O)[C@H](C)/C=C(\C)[C@@H](O)[C@@H](OC)C(=O)[C@H](C)C[C@H](C)/C=C/C=C/C=C/1C | – | phase 1 dose escalation | advanced solid tumour patients | intravenous, 12 mg weekly, grade ≥3 | – | deaths due to TEAEs | 0%
Nc1ncnc2c1ncn2[C@@H]1O[C@@H]2COP(=O)(O)O[C@H]3[C@@H](O)[C@H](n4cnc5c(=O)[nH]cnc54)O[C@@H]3COP(=O)(O)O[C@H]2[C@H]1O | West Nile virus | RNA sequencing, refers to: muscle contraction, smooth, R-HSA-445355 | HFF-1 cells | concentration not given, downregulated pathway | relative to: WNV-infected untreated cells | fold enrichment | 12.1
CC(C)CNC(=O)[C@@H](N)Cc1ccc(OP(=O)(O)CO[C@H](CO)Cn2cnc3c(N)ncnc32)cc1 | human cytomegalovirus | viral replication | – | – | – | IC50 | 290 nM
COc1cc(Nc2ncc(F)c(Nc3ccc4c(n3)NC(=O)C(C)(C)O4)n2)cc(OC)c1OC | SSTR5 (Homo sapiens, UniProt P35346) | – | – | – | – | IC50 | > 10000 nM
N=C(N)NCCC[C@H](NC(=O)[C@H](Cc1c[nH]c2ccccc12)NC(=O)[C@@H](N)CCCNC(=N)N)C(=O)N[C@@H](Cc1c[nH]c2ccccc12)C(=O)N[C@@H](Cc1ccccc1)C(=O)N[C@@H](CCC(N)=O)C(=O)N[C@@H](Cc1ccccc1)C(=O)N[C@@H](CCC(N)=O)C(=O)N[C@@H](Cc1ccccc1)C(=O)N[C@@H](CCCCN)C(N)=O | Bacillus subtilis | – | – | – | – | MBC | 8.8 µM

A few entries again:
Compound | tested on | assay | system | setting | how to read | quantity | result
COc1cc(Nc2ncc(F)c(Nc3ccc4c(n3)NC(=O)C(C)(C)O4)n2)cc(OC)c1OC | SSTR5 (Homo sapiens, UniProt P35346) | – | – | – | – | IC50 | > 10000 nM
OB(O)c1csc2ccccc12 | Staphylococcus aureus | OD600 | USA300 fphE::Tn transposon mutant | 10 µM | relative to: wild type | growth | 75.8% and 59.7% and 69.7% and 81.3% and 54% and 52%
CC(=O)N[C@H]1[C@@H](O[C@@H]2O[C@H](C[C@@H](O)[C@H]3O[C@@H](n4ccc(=O)[nH]c4=O)[C@H](O)[C@@H]3O)[C@H](O)[C@H](O)[C@H]2NC(=O)/C=C/CCCCCCCCCC(C)C)O[C@H](CO)[C@@H](O)[C@@H]1O | Bacillus subtilis | microplate alamar blue | ATCC 6051 | – | – | MIC90 | 0.3 µg/mL (≈ 0.361 µM)
